Experimental data collected from several papers.
Each numbered part is a random draw from the data of one study; scales do not carry over between parts.

Block 1
Target: RING finger protein unkempt homolog, zinc fingers 1-6, GST-SBP tag (UNK, Homo sapiens, UniProt Q9C0B0, residues 30-357)
Technique: RNA Bind-n-Seq
Molecule type: RNA
Sample: in vitro
Concentration: not given
Notes: RNA with constant flanks, human-mouse chimeric sites, ends assumed
Relative to: input RNA pool
Reading: higher = stronger binding
Construct (chain): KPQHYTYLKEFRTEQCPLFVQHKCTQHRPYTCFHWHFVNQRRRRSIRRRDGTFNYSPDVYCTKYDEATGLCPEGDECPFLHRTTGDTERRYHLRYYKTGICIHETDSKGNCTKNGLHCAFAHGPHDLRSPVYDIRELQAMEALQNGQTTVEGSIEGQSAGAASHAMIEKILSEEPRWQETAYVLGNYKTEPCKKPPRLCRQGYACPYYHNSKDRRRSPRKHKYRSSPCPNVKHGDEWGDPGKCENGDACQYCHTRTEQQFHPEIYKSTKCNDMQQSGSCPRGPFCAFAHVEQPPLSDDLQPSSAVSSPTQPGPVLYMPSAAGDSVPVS
`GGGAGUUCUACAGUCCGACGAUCUUAAACACCAAGCUGAUGGACUCUGAUGGCCUCCAUCUCUCAGGCACGUGUGCCUUCUCUUAGUCCCUGUUUUCGGGUCACAAAGCUUCUCAGUACUGUGGUUUGAAAGCACCAGCUUUGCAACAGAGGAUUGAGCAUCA` gave a bound/input enrichment of 0.12 ratio.
`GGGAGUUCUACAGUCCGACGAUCAUAGAUGAAAUUGAUGUGGACCAGGAAGGAAUUGCUGAAAUGAUCCUGGAUGAAAAUGCUAUUGCUCAGGUCCCACGCCCUGGCACAUCUUUGAAACUCCCUGGAACUAACCAAACAGGACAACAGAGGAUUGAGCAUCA` has a bound/input enrichment of 0.401 ratio.
The bound/input enrichment of `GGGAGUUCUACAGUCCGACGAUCCAGUUGAAGACAGAAAAGGAUGAGAAGGAGCUGUAUAAGGUACAUUUGAAGAAUACAGAAAUAGAAAAUACGAAGCUUGUGUCAGAGGUCCAGACUUUAAAGAAUUUAGAUGGAAACAAACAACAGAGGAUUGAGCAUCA` is reported as 3.15 ratio.
`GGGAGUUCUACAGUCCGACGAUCUUGGAAGGACCAGAGCCCAGUCAGCUCAAACCAUUAGUCAUACAGGCUAUGCCCACCCUAAUAGAACUAAUGAAAGACCCCAGUGUAGUUGUUCGAGAUACAGCUGCGUGGACUGUGGGCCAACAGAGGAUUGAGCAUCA` gave a bound/input enrichment of 0.477 ratio.
The bound/input enrichment of `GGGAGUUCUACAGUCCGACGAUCGUAGCUGGGACUACAGAAAUGCUGGUAAUUUCAGUCAGUGAGUCGUGACUUCUGAUGUCCCAGCAAAUGUUGGCAUUGUUGACUGCUGAGAAGAUACUUCUGAGGACCCACGUCUAAGGUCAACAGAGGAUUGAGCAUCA` is reported as 0.0765 ratio.
`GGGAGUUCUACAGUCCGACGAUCUAAGUUAUUUUGUACAGCUUUGUAAAUUGUAUAGCUUUUUAUAUUGCCAUGUUUAUUUUGUUUGGGUAAUUUGGUUCAUUAAGUACAUAGCUAAGGUACAUCUUUCAUUUUUCAGUAAUUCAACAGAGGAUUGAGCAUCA` gave a bound/input enrichment of 1.83 ratio.
The bound/input enrichment of `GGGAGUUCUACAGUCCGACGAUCGGUGGGGGGUUGUCAUUGCCAAUUGAGGCUGAUUUUCAUGAGUCGCCUUCAAAACUCUCGUGUAGGGUUGACAAUGUGGGGGGGUGGGGGAUCCAGCUUAUUCUUUUAUUUUCAAGUCCACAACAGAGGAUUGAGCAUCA` is reported as 0.876 ratio.
For `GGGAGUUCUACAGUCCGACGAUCUCUGGUCACACUCGUGUGUAUGGUGUUUGCUUUGUGGACACUUCACUGGGAAAGUUUUUCAUCGGCCAGUUUUCGGAUGAUCGCCAUUGUUCCAGAUUUAGGACGCUAGUGGCUCACUAUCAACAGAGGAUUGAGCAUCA`, the bound/input enrichment was 0.208 ratio.

Block 2
Target: POU domain, class 6, transcription factor 1, POU and homeodomain (POU6F1, Homo sapiens, UniProt Q14863, residues 311-611)
Technique: protein-binding microarray
Molecule type: hairpin DNA
Sample: in vitro
Concentration: not given
Notes: whole hairpin DNA, median over replicate spots
Relative to: not given
Reading: higher = stronger binding
Shared flanks, not repeated: GAGGCC … GGCCTCACACTCTT
Target sequence (chain): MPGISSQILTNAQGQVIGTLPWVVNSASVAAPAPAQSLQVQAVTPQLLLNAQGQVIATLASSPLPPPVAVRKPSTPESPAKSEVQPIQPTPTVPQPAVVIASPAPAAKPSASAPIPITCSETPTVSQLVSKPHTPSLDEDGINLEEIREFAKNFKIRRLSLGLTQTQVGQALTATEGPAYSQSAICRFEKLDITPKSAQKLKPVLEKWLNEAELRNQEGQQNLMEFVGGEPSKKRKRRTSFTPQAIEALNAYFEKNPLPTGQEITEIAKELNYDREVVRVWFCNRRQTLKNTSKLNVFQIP
For `ATAATGAGGGGCCTCCTGGCCCCTCATTAT`, the median fluorescence was 1860 a.u.
For `ATAAGTAGGTGCCTCCTGGCACCTACTTAT`, the median fluorescence was 902 a.u.
`ATCGTGAGGTGCCTCCTGGCACCTCACGAT (5mC at 9)` has a median fluorescence of 328 a.u.
With `ATCGTGAGGTGCCTCCTGGCACCTCACGAT` the median fluorescence was 316 a.u.
`ATGATGAGGTGCCTCCTGGCACCTCATCAT` has a median fluorescence of 441 a.u.
`ATACGTAGGTGCCTCCTGGCACCTACGTAT (5mC at 10 32)` has a median fluorescence of 348 a.u.
`ATAATTACGTGCCTCCTGGCACGTAATTAT (5mC at 28)` has a median fluorescence of 1070 a.u.
`GTAATGAGGTGCCTCCTGGCACCTCATTAC (5mC at 36)` gave a median fluorescence of 1090 a.u.

Mixed results
`RIEQLYPFA`: binding “inactive” (HLA class I histocompatibility antigen, A alpha chain, allele A*80:01 (Homo sapiens, UniProt P04439); peptide-MHC binding; peptide; concentration not given).
`SF3B1 (Homo sapiens, UniProt O75533)` — result for cross-linked residues: “K554 to K13” (PHF5A (Homo sapiens, UniProt Q7RTV0); cross-linking MS; cells; together with: BSPNO).

For quick reference, copied from above (block 1):
The bound/input enrichment of `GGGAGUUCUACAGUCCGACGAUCGUAGCUGGGACUACAGAAAUGCUGGUAAUUUCAGUCAGUGAGUCGUGACUUCUGAUGUCCCAGCAAAUGUUGGCAUUGUUGACUGCUGAGAAGAUACUUCUGAGGACCCACGUCUAAGGUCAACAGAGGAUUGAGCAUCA` is reported as 0.0765 ratio.
`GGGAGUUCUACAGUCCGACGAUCUAAGUUAUUUUGUACAGCUUUGUAAAUUGUAUAGCUUUUUAUAUUGCCAUGUUUAUUUUGUUUGGGUAAUUUGGUUCAUUAAGUACAUAGCUAAGGUACAUCUUUCAUUUUUCAGUAAUUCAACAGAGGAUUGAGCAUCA` gave a bound/input enrichment of 1.83 ratio.
The bound/input enrichment of `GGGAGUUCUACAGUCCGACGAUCGGUGGGGGGUUGUCAUUGCCAAUUGAGGCUGAUUUUCAUGAGUCGCCUUCAAAACUCUCGUGUAGGGUUGACAAUGUGGGGGGGUGGGGGAUCCAGCUUAUUCUUUUAUUUUCAAGUCCACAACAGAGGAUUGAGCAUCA` is reported as 0.876 ratio.
